Measured values gathered from unrelated publications.
Numbers after ± are the reported error.
Fibroin-modulator-binding protein-1: Fibroin-modulator-binding protein-1 99-193 (Bombyx mori, UniProt Q5FBS0)
T1: ATRX ADD domain 167-289 K251R/F284Y (Homo sapiens); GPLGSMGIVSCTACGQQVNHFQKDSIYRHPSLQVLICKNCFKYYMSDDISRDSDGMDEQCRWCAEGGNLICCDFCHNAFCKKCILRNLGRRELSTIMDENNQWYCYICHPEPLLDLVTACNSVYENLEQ
B1: Pigr 19-135 F5A/Y23A/P25A (Mus musculus, UniProt O70570); sequence looked up; chain KSPIAGPQEVSSIEGDSVSITCAYADTSVNRHTRKYWCRQGASGMCTTLISSNGYLSKEYSGRANLINFPENNTFVINIEQLTQDDTGSYKCGLGTSNRGLSFDVSLEVSQVPELPS
B2: BRAF kinase 448-723 K723G/P722S/S720E/L716E/S713E/Q709R/L706S/A688R/Y673S/R662E/K630S/V600E/L588N/Q562R (Homo sapiens, UniProt P15056); sequence looked up; chain DDWEIPDGQITVGQRIGSGSFGTVYKGKWHGDVAVKMLNVTAPTPQQLQAFKNEVGVLRKTRHVNILLFMGYSTKPQLAIVTQWCEGSSLYHHLHASETKFEMKKLIDIARQTARGMDYLHAKSIIHRDLKSNNIFLHEDNTVKIGDFGLATEKSRWSGSHQFEQLSGSILWMAPEVIRMQDSNPYSFQSDVYAFGIVLYELMTGQLPYSNINNEDQIIFMVGRGSLSPDLSKVRSNCPKRMKRLMAECLKKKRDERPSFPRILAEIEELARELSG
B3: C1S 438-688 S632A (Homo sapiens, UniProt P09871); chain IIGGSDADIKNFPWQVFFDNPWAGGALINEYWVLTAAHVVEGNREPTMYVGSTSVQTSRLAKSKMLTPEHVFIHPGWKLLEVPEGRTNFDNDIALVRLKDPVKMGPTVSPICLPGTSSDYNLMDGDLGLISGWGRTEKRDRAVRLKAARLPVAPLRKCKEVKVEKPTADAEAYVFTPNMICAGGEKGMDSCKGDAGGAFAVQDPNDKTKFYAAGLVSWGPQCGTYGLYTRVKNYVDWIMKTMQENSTPRED
B4: PLXNB1 RBD 1746-1852 (Homo sapiens, UniProt O43157); sequence looked up; chain YRPLTLNALLAVGPGAGEAQGVPVKVLDCDTISQAKEKMLDQLYKGVPLTQRPDPRTLDVEWRSGVAGHLILSDEDVTSEVQGLWRRLNTLQHYKVPDGATVALVPC
Sequence of UniProt P27986 (whole entry, looked up): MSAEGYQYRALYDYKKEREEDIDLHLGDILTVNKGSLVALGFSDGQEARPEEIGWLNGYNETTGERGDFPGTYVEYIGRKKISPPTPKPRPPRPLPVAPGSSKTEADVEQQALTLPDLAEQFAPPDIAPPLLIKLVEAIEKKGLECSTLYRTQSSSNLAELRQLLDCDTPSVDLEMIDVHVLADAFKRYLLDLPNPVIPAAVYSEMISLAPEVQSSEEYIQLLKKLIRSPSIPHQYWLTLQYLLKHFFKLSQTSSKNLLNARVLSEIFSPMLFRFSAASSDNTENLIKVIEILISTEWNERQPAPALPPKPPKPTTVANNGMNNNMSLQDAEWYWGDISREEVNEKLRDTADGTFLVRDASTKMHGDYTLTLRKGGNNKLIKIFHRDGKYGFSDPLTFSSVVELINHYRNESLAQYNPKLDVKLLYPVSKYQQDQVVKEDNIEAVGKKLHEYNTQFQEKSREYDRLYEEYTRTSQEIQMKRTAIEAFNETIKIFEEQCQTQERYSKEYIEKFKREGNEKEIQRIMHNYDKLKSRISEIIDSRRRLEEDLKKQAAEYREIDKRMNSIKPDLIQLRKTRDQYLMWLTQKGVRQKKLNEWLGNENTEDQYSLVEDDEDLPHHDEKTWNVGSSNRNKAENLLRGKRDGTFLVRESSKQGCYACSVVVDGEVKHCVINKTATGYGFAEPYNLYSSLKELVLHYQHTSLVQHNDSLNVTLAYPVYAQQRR
Sequence of UniProt P05155 (whole entry, looked up): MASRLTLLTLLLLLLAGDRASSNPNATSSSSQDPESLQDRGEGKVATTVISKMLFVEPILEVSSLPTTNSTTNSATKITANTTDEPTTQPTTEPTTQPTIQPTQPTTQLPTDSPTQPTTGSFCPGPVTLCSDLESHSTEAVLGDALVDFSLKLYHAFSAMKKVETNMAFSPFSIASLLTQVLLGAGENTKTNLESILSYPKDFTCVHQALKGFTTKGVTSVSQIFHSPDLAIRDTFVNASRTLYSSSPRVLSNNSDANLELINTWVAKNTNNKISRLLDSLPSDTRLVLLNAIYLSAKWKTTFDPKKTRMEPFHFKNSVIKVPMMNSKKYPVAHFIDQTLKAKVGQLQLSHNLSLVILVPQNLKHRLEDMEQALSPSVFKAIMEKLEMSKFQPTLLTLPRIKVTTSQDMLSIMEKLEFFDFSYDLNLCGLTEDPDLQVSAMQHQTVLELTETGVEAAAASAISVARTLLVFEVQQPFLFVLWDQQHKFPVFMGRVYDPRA
Sequence of UniProt P62960 (whole entry, looked up): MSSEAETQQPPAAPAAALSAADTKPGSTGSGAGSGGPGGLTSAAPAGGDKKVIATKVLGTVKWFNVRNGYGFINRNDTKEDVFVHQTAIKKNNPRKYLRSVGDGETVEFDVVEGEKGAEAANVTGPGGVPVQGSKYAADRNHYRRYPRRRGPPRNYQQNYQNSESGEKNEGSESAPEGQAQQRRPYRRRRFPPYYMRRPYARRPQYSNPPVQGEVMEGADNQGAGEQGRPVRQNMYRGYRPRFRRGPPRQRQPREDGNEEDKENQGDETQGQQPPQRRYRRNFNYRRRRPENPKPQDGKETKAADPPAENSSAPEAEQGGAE
Sequence of UniProt Q9NZQ7 (whole entry, looked up): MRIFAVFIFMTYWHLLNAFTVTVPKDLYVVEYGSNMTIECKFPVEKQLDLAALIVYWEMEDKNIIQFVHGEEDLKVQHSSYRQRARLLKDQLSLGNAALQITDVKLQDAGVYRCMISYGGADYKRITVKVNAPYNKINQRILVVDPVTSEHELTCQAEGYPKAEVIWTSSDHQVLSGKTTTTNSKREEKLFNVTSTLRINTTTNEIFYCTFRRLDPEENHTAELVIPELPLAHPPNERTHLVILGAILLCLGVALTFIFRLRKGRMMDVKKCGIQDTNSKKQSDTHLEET
Sequence of UniProt Q92730 (whole entry, looked up): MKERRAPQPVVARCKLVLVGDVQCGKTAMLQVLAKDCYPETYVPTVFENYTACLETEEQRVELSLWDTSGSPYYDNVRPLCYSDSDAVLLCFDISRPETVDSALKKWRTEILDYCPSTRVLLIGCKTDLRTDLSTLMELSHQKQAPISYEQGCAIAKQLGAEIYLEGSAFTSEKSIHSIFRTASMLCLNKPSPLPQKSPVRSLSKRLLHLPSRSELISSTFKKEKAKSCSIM

| Molecule | target or system | test | test system | conditions | how to read | measurement | value |
| --- | --- | --- | --- | --- | --- | --- | --- |
| ARTKQTARKSTGGKAY (H3C1 1-15; K4me1) | T1, ATRX ADD domain 167-289 K251R/F284Y (Homo sapiens) | ITC | peptide | – | – | Kd | 21900 nM |
| ATCCATCCATCC (dsDNA) | Fibroin-modulator-binding protein-1 | ITC | double-stranded DNA, one strand shown | – | – | Kd | 2040 ± 201 nM |
| B1 (Pigr 19-135 F5A/Y23A/P25A) | IgA Fc/J chain CH2-CH3 domains, dimeric 113-344 (Mus musculus) | SPR | – | – | – | Kd | 445 nM |
| CALLLSAPRR (GOT2 (Gallus gallus); fluorescein label) | HSPA9 mature A475W (Homo sapiens, UniProt P38646) | FP | peptide | – | – | Kd | 36300 nM |
| AGACAGACAGAC (dsDNA) | Fibroin-modulator-binding protein-1 | ITC | double-stranded DNA, one strand shown | – | – | Kd | 8380 ± 969 nM |
| PRPRPRPRPRPRPRPRPRPRPRPRPRPRPRPRPRPRPRPR ((PR)20 20 repeats; TAMRA label N-terminal) | FUS 1-371 (Homo sapiens, UniProt P35637) | fluorescence polarisation | peptide | – | – | Kd | 51 ± 8.4 nM |
| B2 | MAP2K1 (Homo sapiens, UniProt Q02750) | BLI | – | – | – | Kd | 170 ± 13.7 nM |
| GGYMDMSKDESVDYVPML (PDGFRB 738-755; doubly phosphorylated) | PIK3R1 80-724 (Homo sapiens, UniProt P27986) | ITC | peptide | – | – | Kd | 660 nM |
| GSGAGIATEV | human MAGI1-2/6 PDZ construct (MBP fusion) | automated holdup | peptide, crude extract | concentration not given, uncorrected, unit not given | baseline: biotin control resin, higher = stronger binding | binding intensity | 0.432 |
| B3 (C1S 438-688 S632A) | SERPING1 111-500 (Homo sapiens, UniProt P05155) | SPR | – | steady-state, together with: Ca2+ | – | Kd | 2700 nM |
| WHRSYYTWN (TR3 peptide; Fam label) | CD274 (Homo sapiens, UniProt Q9NZQ7) | flow cytometry | peptide, MDA-MB-231 | apparent, on cells | – | Kd | 482 nM |
| B4 (PLXNB1 RBD 1746-1852) | RND1 5-200 (Homo sapiens, UniProt Q92730) | SPR | – | – | – | Kd | 1510 ± 420 nM |
| Ybx1 (Mus musculus, UniProt P62960) | Purb P223L (Mus musculus) | ELISA | – | – | – | Kd | 24.8 ± 4.4 nM |
| GLAQWIAGV | Jurkat T cells expressing 1G4 TCR | NFAT-eGFP reporter, flow cytometry | peptide | concentration not given, HLA-A*02:01 NY-ESO system | – | reporter activation | 0.17% |
| FGB dimer (Homo sapiens) | CDH2 extracellular domain 1-551 (Homo sapiens) | SPR | – | Langmuir fit, together with: CaCl2 | – | Kd | 12.4 nM |

A few entries again:
| Molecule | target or system | test | test system | conditions | how to read | measurement | value |
| --- | --- | --- | --- | --- | --- | --- | --- |
| AGACAGACAGAC (dsDNA) | Fibroin-modulator-binding protein-1 | ITC | double-stranded DNA, one strand shown | – | – | Kd | 8380 ± 969 nM |
